# Published values of several laboratories.
# Lines come from different studies, so protocols differ. ± marks the error that the study gave.
# Cell line: A549
Structure (SMILES),assay,setting,IC50 [µM]
N=C(N)NCCC[C@@H]1NC(=O)[C@H](CCCCN)NC(=O)[C@@H](Cc2ccc(O)cc2)NC(=O)[C@H](CC(=O)O)NC(=O)CNC1=O,"cell growth or viability, MTT",,> 100
COc1c(O)cc2oc3c(Cl)c(O)c(CC=C(C)C)c(O)c3c(=O)c2c1CC=C(C)C,cell growth or viability,48 h,> 40
Nc1cccc[n+]1CCCCC[n+]1ccccc1N,"cell growth or viability, MTT",24 h,1000
Cc1cc(C)c([N+]#[C][Pt-]([Cl])([Cl])=[C](Nc2cccc(CN[C](Nc3c(C(C)C)cccc3C(C)C)=[Au][Cl])c2)Nc2c(C)cc(C)cc2C)c(C)c1,cell growth or viability,,> 100
C=C1C2CC3C4N5CC6(C)CCCC47C6C5CC3(C1O)C7C2 (centres unmarked),"cell growth or viability, MTT",,75.3
CCCCCC(=O)NCCNC(=O)[C@]1(C)[C@@H]2CC[C@]3(C)[C@H](C(=O)C=C4[C@@H]5[C@@H](C)[C@H](C)CC[C@]5(C)CC[C@]43C)[C@@]2(C)CC[C@H]1OC(C)=O,"cell growth or viability, MTT",48 h,19
CC(=O)OC[C@@]12CCC[C@@](C)(CO)[C@H]1CC[C@@]13C[C@@H](C[C@H](O)[C@H]12)[C@H](C)C3=O,"cell growth or viability, MTT",,> 20
CC(C)(O)[C@@H]1CC[C@](C)([C@H]2CC[C@]3(C)[C@@H]2CC[C@@H]2[C@@]4(C)CCC(=O)C(C)(C)[C@@H]4CC[C@]23C)O1,"cell growth or viability, SRB",,> 100
COc1cc(/C=C/C(=O)NCCCCCCNC2=C3C[C@@H](C)C[C@H](OC)[C@H](O)[C@@H](C)/C=C(\C)[C@H](OC(N)=O)[C@@H](OC)/C=C\C=C(/C)C(=O)NC(=CC2=O)C3=O)ccc1O,"cell growth or viability, MTT",72 h,0.336
COc1ccc(C2=NN(C3=NC(=O)/C(=C/c4ccc(N(C)C)cc4)S3)C(c3ccc(F)cc3)C2)cc1 (centres unmarked),"cell growth or viability, MTT",,78.2
Cc1cc(C)c([N+]#[C][Pd-]([Cl])([Cl])=[C](Nc2ccc(CN[C](NC(C)(C)C)=[Au][Cl])cc2)Nc2c(C)cc(C)cc2C)c(C)c1,cell growth or viability,,> 100
C[OH+][Cu-2]12[O]C(c3cn(-c4ccccc4)nc3-c3ccc(F)cc3)=N[N+]1=C(C)c1c(cc(C)oc1=O)[O]2 (centres unmarked),"cell growth or viability, MTT",48 h,7.4
O=C1c2ccc3c4ccc5c6c(ccc(c7ccc(c2c37)C(=O)N1CCN1CCCCC1)c64)C(=O)N(CCN1CCCCC1)C5=O,"cell growth or viability, SRB",72 h,52.5
CC(=O)[O][Pt]([Cl])([Cl])[O]C(=O)CCCc1ccccc1.N.N,cell growth or viability,,7.16
Cc1cc(C)c([N+]#[C][Pt-]([Cl])([Cl])=[C](Nc2cccc(CN[C](NC(C)(C)C)=[Au][Cl])c2)Nc2c(C)cc(C)cc2C)c(C)c1,cell growth or viability,,> 100
Cc1ccc(C(C)C)cc1.Cc1ncc(CO)c(C=NNC2=Nc3ccccc3-c3[nH]c4ccc(Br)cc4c3C2)c1O.[Cl-].[Cl][Os+],"cell growth or viability, MTT",96 h,10
CCOC(=O)c1ccc2c(c1)n(CC)[c]([Au-][Cl])[n+]2CC,"cell growth or viability, crystal violet",72 h,11.6
C[N+]1(C)CC[NH2+][Pt-2]1([OH])([OH])([Cl])[Cl],"cell growth or viability, MTT",96 h,111
COc1c(C)c(O)c(C(=O)C=Cc2ccccc2)c(OC)c1C,"cell growth or viability, SRB",72 h,25.4
Cc1ccc(C2C([N+](=O)[O-])C(Cc3ccc(O)cc3)NC23C(=O)c2cccc4cccc3c24)cc1 (centres unmarked),"cell growth or viability, MTT",24 h,53
COc1ccc(/C=C/C2=[N+]3C(=C(CO)c4c(C)cc(/C=C/c5ccc(OC)cc5)n4[B-]3(C)C)C(C)=C2)cc1,"cell growth or viability, resazurin",dark,> 100
CCN1CCC2(CC1)C/C(=N\NC(=O)Nc1ccc(Cl)cc1)c1ccccc1O2,"cell growth or viability, MTT",48 h,47.7
[Cl-].[Cl-].[Ru+2].c1ccc(-c2cccc(-c3ccccn3)n2)nc1.c1ccc2nc(-c3ccc4ccccc4n3)ccc2c1,cell growth or viability,"72 h, dark",42.5
C=C(C)[C@@H]1CC[C@]2(C(=O)O)CC[C@]3(C)[C@H](CC[C@@H]4[C@@]5(C)CC[C@H](O[C@@H]6O[C@@H](C)[C@H](OC)[C@@H](O)[C@H]6O)C(C)(C)[C@@H]5CC[C@]43C)[C@@H]12,"cell growth or viability, fluorescence",48 h,2.5
O=S(=O)([O-])[O-].[Cu+2].c1ccc(-c2nnc(-c3ccc4c(c3)OCO4)[nH]2)nc1,"cell growth or viability, MTT",24 h,7.42
COc1cc2c(cc1O)[C@]1(O)C(=O)c3c(O)cc4c(c3O[C@@H]1CO2)C=CC(C)(C)O4,"cell growth or viability, MTT",,81
CC(=O)O[C@@H]1CC[C@@]2(C)[C@@H](CC[C@]3(C)[C@@H]2C(=O)C=C2[C@@H]4[C@@H](C)[C@H](C)CC[C@]4(C)CC[C@]23C)[C@@]1(C)C(=O)NCCNC(=O)CCCCBr,"cell growth or viability, MTT",48 h,9.36
Cc1c(C)c(C)[c-](C)c1C.O=[N+]([O-])c1ccnc(-c2[c-]cccc2)c1.[Cl-].[Ir+3],SRB,"24 h, 72 h recovery",20.1 ± 0.3
NCCNC(=O)c1ccc2[nH]c(C(=O)c3ccc(O)cc3)nc2c1,"cell growth or viability, ATP luminescence",72 h,> 300
C=CC(=C)CC[C@]1(C)[C@H](C)CC[C@@]23C(=C[C@H](OC(=O)C(C)C)C[C@@H]12)[C@@H](OC(C)=O)O[C@H]3OC(C)=O,"cell growth or viability, SRB",,> 40
CCCCCCCCSc1nc(N)c2c(F)c(C#N)c(F)c(F)c2n1,"cell growth or viability, MTT",96 h,> 100
CC1=CC(c2ccccc2)=[O+][Pt-2]([NH3+])([NH3+])[O]1.O=[N+]([O-])[O-] (centres unmarked),"cell growth or viability, MTT",,7
Nc1nc(-c2ccc(-n3cccc3)cc2)cc(-c2ccc(Cl)cc2Cl)n1,"cell viability, MTT",24 h,49.4
Cc1cc(C=O)cc(C)c1Oc1cc(Nc2ccc(C#N)cn2)nc2ccncc12,,48 h,> 126
C=CC(=O)Nc1cc(Nc2nccc(-c3c(-c4ccc(Cl)cc4)n(C)c4ccccc34)n2)c(OC)cc1N(C)CCN(C)C,"cell growth or viability, MTT",72 h,0.415
O=C(Cn1cc(C2CC(c3ccccc3)=NN2)nn1)Nc1nc(-c2ccccc2)cs1 (centres unmarked),"cell growth or viability, MTT",72 h,0.014
Cc1cccc(-c2cccc(C)n2)n1.[Cl-].[Cl-].[Ru+2].c1ccc(-c2ccccn2)nc1.c1ccc(-c2ccccn2)nc1,resazurin,"72 h, with: indigo light 450 nm, 29.1 J/cm2",22.6
Oc1ncnc2c1sc1sc3c(O)ncnc3c12,"cell growth or viability, MTT",,4.19
N#Cc1c(F)c(Cl)c2nc(SCc3ccc4ccccc4c3)nc(N)c2c1F,"cell growth or viability, MTT",96 h,9.28
CCCC(CCC)C(=O)NCCNC(=O)[C@]1(C)[C@@H]2CC[C@]3(C)[C@H](C(=O)C=C4[C@@H]5[C@@H](C)[C@H](C)CC[C@]5(C)CC[C@]43C)[C@@]2(C)CC[C@H]1OC(C)=O,"cell growth or viability, MTT",48 h,> 30
N#Cc1cccc(-c2ccc(=O)n(Cc3cccc(-c4ncc(OCC5CCN(CCCCCCC(=O)Nc6cccc7c6C(=O)N(C6CCC(=O)NC6=O)C7=O)CC5)cn4)c3)n2)c1 (centres unmarked),"cell growth or viability, CCK-8",72 h,1.03

# A few entries again:
Structure (SMILES),assay,setting,IC50 [µM]
N#Cc1c(F)c(Cl)c2nc(SCc3ccc4ccccc4c3)nc(N)c2c1F,"cell growth or viability, MTT",96 h,9.28
Nc1cccc[n+]1CCCCC[n+]1ccccc1N,"cell growth or viability, MTT",24 h,1000
C[OH+][Cu-2]12[O]C(c3cn(-c4ccccc4)nc3-c3ccc(F)cc3)=N[N+]1=C(C)c1c(cc(C)oc1=O)[O]2 (centres unmarked),"cell growth or viability, MTT",48 h,7.4
C=CC(=O)Nc1cc(Nc2nccc(-c3c(-c4ccc(Cl)cc4)n(C)c4ccccc34)n2)c(OC)cc1N(C)CCN(C)C,"cell growth or viability, MTT",72 h,0.415
Cc1cc(C)c([N+]#[C][Pt-]([Cl])([Cl])=[C](Nc2cccc(CN[C](NC(C)(C)C)=[Au][Cl])c2)Nc2c(C)cc(C)cc2C)c(C)c1,cell growth or viability,,> 100
O=S(=O)([O-])[O-].[Cu+2].c1ccc(-c2nnc(-c3ccc4c(c3)OCO4)[nH]2)nc1,"cell growth or viability, MTT",24 h,7.42
